# Results pooled from the literature.
# ± gives the spread as reported.
Structure (SMILES),cell line,assay,conditions,IC50
CC(C)OC(=O)[C@H](CO)NCc1cc(Cl)c(OCc2cccc(-c3ccccc3)c2Br)cc1OCc1cccnc1,MC-38,"cell growth or viability, MTT",,> 10 µM
C=CC(=O)N1CCCC(n2c(=O)c3ncccc3n(Cc3ccc(Oc4ccccc4)cc3)c2=O)C1 (stereo not shown),Granta-519,"cell growth or viability, MTT",72 h,0.25 µM
Cn1ccnc1S/C(=C\C=C(C#N)C#N)c1ccc(Cl)cc1,mouse embryonic fibroblasts,"cell viability, CellTiter-Glo",48 h,1.8 µM
CN1CC[C@@H](COc2cnc(C#N)cc2-c2ccn3nc(NC(=O)C4CC4)cc3c2)C1,human monocyte-derived macrophages,"cytokine release, item: TNF",added: LPS,1.41 µM
O=C1CS/C(=N\N=C\c2cccc3cc4ccccc4nc23)N1c1ccccc1,PATU,"cell proliferation, MTT",48 h,16.8 ± 2.64 µM
CNS(=O)(=O)Nc1nccc(Cc2c(C)c3ccc(Oc4ncccc4F)cc3oc2=O)c1F,MHCC97H,cell viability,7 days,0.923 µM
Nc1cc2cccnc2c2ncccc12.[Cl-].[Cl-].[Ru+2].c1cnc2c(c1)ccc1cccnc12.c1cnc2c(c1)ccc1cccnc12,HFF-1,"cell growth or viability, MTT",dark,> 1000 µM
C[C@H]1[C@H](C)CC[C@]2(C)CC[C@]3(C)C(=CC(=O)[C@@H]4[C@@]5(C)CC[C@@H](O)[C@](C)(C(=O)O)[C@@H]5CC[C@]43C)[C@H]12,HDF,"cell growth or viability, MTT",24 h,194 µM
COc1ccc(N2C(=O)CS/C2=N\N=C\c2cccc3cc4ccccc4nc23)cc1,PATU,"cell proliferation, MTT",48 h,> 50 µM
CCOC(=O)C1CC(CC)C2C=CC3CCN(C(=O)C4CCC5C=CC6(CCCN6C(=O)C(Cc6ccccc6Cl)NC(C)=O)C(=O)N54)C3C(=O)N12 (stereo not shown),MDA-MB-231 expressing mCherry,"cell invasion, Boyden chamber",,12 µM
Cc1nc(C(=O)NC2(O)C(=O)c3ccccc3C2=O)cs1,HEK293-A GFP-LC3B,LC3B puncta formation,"22 h, added: chloroquine, torin1",> 20 µM
C1=[N+]2CCCC[N+]3=Cc4ccc5[n]4[Au-]23[n]2c1ccc2-c1nc2ccccc2nc1-5.F[P-](F)(F)(F)(F)F,SN12C,,NCI60 five-dose screen,3.2 µM
O=C(NCc1cc(F)cc(F)c1)[C@@]1(O)CCN(c2ccc3[nH]ccc3c2)C1=O,C6,cell growth or viability,,1 µM
COC(=O)c1ccc(NC(=O)Nc2ccc(C(F)(F)F)cc2)cc1,LAD2,degranulation,,4.77 µM
Cn1ncc(-c2ccc3c(=O)[nH]nc(CN)c3c2)c1-c1c(F)c(Cl)cc(OC2CC2)c1C#N,Granta-519,"cell viability, inhibitor, CellTiter-Glo","120 h, baseline-subtracted",0.02 µM
CC(C)CN1C(=O)CS/C1=N\N=C\c1cccc2cc3ccccc3nc12,PATU,"cell proliferation, MTT",48 h,25.5 ± 4.1 µM
CC(C)c1ccc(N(C)c2ccc3c(c2)OCC[C@H]3CNc2cnccc2C(=O)O)cc1,UMUC3,"cell growth or viability, ATP luminescence",7 days,0.0395 µM
C[C@H]1CN(C2COC2)CCN1c1ccc(Nc2cc(-c3ccnc(N4CCn5c(cc6c5CC(C)(C)C6)C4=O)c3CO)cn(C)c2=O)nc1,TMD8,"cell growth or viability, ATP luminescence",96 h,0.0084 µM
COC(=O)N1c2ccc3c(nc(Cc4ccccc4)n3[C@@H]3CCC[C@@H](C(=O)O)C3)c2CC[C@@H]1C,ZR-75-30,"cell growth or viability, ATP luminescence",10 days,0.1 µM
N#Cc1c(N)nc2c(c1-c1ccc(CO)o1)CCc1cc(O)ccc1-2,HH,"cell growth or viability, ATP luminescence",,10.6 µM
CC(C)(C)c1cnc(CSc2cnc(NC(=O)C3CCN(C(=O)CCCCCCN4Cc5cc6c(cc5C4)C(=O)N(C4CCC(=O)NC4=O)C6=O)CC3)s2)o1 (stereo not shown),A673,"cell growth or viability, MTT",,0.0438 µM
CC1(C)CC(=O)C2=C(C1)Oc1ccccc1C2Sc1ccccc1 (stereo not shown),3T3-L1 pre-adipocytes,"cell viability, MTT",72 h,59.7 ± 3.01 µg/mL
CCOc1cncc(-c2ccc(NC(=O)C3(c4ccnc(NS(=O)(=O)C5CC5)n4)CCOCC3)nc2)n1,HuP-T3,"cell growth or viability, ATP luminescence",72 h,0.103 µM
CC1(C)CC(=O)C2=C(C1)Oc1c(O)cccc1C2n1nnc2ccccc21 (stereo not shown),3T3-L1 pre-adipocytes,"cell viability, MTT",72 h,78.8 ± 1.43 µg/mL
Cc1ccc([N+](=O)[O-])cc1S(=O)(=O)N(C)/N=C/c1cnc2ccc(Br)cn12,Malme-3M,"cytotoxicity, MTS",,0.116 µM
CCn1nc(Cl)c2c1-c1cnc(N)c(c1)O[C@H](C)c1cc(F)ccc1-c1nn(C)cc1C2,Ba/F3 EML4-ALK v1,cell viability,,0.00668 µM
CCOC(=O)c1nc2c3nsnc3ccc2n(CC)c1=O,HEK293-A GFP-LC3B,LC3B puncta formation,"22 h, added: chloroquine, torin1",> 20 µM
CC1(C)CC(=O)C2=C(C1)Oc1ccc3ccccc3c1C2c1c(C(=O)O)[nH]c2ccccc12 (stereo not shown),3T3-L1 pre-adipocytes,"cell viability, MTT",72 h,74.6 ± 2.78 µg/mL

# Repeated from above:
Structure (SMILES),cell line,assay,conditions,IC50
CC1(C)CC(=O)C2=C(C1)Oc1ccccc1C2Sc1ccccc1 (stereo not shown),3T3-L1 pre-adipocytes,"cell viability, MTT",72 h,59.7 ± 3.01 µg/mL
CC(C)CN1C(=O)CS/C1=N\N=C\c1cccc2cc3ccccc3nc12,PATU,"cell proliferation, MTT",48 h,25.5 ± 4.1 µM
COc1ccc(N2C(=O)CS/C2=N\N=C\c2cccc3cc4ccccc4nc23)cc1,PATU,"cell proliferation, MTT",48 h,> 50 µM
